{"data": "Results of several laboratories", "note": "Each numbered part is a random draw from the data of one study; scales do not carry over between parts. “And” joins repeats or separate records; there may be more than shown.", "UniProt Q8WU08, sequence (whole entry, looked up)": "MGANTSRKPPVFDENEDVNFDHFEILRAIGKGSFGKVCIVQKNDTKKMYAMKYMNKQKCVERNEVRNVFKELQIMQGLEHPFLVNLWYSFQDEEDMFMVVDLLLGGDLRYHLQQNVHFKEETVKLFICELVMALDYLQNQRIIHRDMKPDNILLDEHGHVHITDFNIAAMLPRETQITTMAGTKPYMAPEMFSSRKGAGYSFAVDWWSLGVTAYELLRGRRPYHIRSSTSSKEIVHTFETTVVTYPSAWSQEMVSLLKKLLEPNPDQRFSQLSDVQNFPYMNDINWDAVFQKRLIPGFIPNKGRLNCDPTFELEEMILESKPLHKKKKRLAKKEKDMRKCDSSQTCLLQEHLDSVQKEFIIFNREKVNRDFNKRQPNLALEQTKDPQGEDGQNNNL", "UniProt P10721, sequence (whole entry, unmodified, looked up)": "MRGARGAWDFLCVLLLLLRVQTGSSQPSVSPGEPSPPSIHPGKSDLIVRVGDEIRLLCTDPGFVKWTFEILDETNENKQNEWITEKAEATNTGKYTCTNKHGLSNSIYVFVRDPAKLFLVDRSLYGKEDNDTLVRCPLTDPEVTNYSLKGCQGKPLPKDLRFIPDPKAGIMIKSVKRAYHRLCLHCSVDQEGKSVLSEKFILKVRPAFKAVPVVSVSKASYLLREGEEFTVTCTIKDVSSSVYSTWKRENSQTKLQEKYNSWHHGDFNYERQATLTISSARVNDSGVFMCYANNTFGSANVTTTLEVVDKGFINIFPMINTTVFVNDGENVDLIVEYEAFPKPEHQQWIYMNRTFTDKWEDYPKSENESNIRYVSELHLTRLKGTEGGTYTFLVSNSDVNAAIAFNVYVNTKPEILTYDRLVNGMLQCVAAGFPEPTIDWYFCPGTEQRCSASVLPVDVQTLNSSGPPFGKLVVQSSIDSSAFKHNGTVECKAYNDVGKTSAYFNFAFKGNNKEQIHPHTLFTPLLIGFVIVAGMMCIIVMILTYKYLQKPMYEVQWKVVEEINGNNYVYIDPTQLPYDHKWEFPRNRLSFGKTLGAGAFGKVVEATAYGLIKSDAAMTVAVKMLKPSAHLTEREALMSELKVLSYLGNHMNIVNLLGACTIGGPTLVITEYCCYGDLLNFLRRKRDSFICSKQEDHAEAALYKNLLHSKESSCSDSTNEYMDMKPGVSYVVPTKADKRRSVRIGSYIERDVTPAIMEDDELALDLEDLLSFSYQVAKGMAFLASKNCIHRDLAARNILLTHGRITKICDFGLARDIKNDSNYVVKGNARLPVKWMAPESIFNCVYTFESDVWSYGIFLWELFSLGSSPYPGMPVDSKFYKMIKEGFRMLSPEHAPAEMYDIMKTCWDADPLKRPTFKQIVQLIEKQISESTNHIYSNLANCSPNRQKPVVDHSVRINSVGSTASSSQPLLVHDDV", "UniProt P49137, sequence (whole entry, looked up)": "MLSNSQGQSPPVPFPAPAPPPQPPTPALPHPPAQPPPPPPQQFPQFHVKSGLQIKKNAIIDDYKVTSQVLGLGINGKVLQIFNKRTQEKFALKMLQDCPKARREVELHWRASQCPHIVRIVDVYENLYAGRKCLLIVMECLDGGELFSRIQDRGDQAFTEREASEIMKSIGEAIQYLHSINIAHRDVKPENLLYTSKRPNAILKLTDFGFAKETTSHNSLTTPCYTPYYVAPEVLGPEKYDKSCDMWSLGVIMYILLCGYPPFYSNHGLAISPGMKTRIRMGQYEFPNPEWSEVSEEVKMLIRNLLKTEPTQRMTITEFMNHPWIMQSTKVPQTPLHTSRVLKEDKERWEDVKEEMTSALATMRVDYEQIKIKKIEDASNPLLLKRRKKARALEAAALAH", "UniProt P49674, sequence (whole entry, looked up)": "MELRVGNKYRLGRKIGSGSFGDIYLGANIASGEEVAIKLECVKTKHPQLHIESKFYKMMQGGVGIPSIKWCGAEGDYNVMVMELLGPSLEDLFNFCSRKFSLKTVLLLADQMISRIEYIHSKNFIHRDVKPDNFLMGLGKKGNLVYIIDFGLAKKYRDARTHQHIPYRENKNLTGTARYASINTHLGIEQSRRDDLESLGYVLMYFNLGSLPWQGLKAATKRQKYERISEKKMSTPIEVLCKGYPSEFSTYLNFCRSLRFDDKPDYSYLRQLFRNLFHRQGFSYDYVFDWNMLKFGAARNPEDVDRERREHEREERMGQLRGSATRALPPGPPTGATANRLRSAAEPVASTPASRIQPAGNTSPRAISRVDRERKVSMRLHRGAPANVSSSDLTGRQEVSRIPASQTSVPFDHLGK", "UniProt Q13554, sequence (whole entry, looked up)": "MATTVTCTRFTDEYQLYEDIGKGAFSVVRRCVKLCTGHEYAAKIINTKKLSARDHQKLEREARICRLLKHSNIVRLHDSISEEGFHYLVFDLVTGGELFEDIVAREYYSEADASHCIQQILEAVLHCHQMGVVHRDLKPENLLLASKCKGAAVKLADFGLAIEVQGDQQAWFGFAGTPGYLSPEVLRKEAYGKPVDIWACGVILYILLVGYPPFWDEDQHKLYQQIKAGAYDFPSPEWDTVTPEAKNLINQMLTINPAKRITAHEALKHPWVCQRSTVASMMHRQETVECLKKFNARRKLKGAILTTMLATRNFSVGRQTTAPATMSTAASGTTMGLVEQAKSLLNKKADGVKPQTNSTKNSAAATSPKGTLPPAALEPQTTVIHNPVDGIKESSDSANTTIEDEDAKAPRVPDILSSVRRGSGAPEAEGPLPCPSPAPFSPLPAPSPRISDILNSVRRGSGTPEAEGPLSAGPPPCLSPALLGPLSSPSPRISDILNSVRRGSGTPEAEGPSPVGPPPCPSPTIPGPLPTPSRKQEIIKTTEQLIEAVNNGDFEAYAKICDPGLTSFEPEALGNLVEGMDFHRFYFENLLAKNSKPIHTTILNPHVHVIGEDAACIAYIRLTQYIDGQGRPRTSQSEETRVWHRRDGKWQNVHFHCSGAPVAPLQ", "UniProt P07333, sequence (whole entry, looked up)": "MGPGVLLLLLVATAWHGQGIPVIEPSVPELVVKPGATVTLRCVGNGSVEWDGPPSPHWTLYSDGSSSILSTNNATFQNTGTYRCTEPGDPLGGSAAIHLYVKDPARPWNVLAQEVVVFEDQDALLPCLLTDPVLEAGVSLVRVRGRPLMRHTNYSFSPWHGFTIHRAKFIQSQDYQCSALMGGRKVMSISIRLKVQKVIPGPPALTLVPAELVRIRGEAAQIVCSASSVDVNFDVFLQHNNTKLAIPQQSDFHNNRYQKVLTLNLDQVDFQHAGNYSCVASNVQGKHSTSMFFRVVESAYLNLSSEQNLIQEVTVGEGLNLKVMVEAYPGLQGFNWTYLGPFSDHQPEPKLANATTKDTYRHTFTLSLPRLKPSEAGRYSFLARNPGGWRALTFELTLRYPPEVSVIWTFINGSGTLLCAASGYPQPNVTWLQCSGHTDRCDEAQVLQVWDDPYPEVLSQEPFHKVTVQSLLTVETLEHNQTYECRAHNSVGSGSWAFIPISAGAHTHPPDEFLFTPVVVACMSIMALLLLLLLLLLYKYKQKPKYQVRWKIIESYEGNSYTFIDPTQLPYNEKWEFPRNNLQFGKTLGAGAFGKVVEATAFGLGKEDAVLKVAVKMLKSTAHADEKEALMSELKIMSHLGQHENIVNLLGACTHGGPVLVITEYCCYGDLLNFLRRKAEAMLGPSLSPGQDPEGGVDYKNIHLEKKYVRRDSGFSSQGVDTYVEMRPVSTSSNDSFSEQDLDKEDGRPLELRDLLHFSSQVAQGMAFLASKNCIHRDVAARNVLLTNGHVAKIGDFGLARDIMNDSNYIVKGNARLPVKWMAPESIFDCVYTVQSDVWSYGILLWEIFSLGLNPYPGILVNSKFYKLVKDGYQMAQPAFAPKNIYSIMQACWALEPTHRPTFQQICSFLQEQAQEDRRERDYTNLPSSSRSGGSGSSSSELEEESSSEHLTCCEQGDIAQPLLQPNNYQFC", "UniProt O14730, sequence (whole entry, looked up)": "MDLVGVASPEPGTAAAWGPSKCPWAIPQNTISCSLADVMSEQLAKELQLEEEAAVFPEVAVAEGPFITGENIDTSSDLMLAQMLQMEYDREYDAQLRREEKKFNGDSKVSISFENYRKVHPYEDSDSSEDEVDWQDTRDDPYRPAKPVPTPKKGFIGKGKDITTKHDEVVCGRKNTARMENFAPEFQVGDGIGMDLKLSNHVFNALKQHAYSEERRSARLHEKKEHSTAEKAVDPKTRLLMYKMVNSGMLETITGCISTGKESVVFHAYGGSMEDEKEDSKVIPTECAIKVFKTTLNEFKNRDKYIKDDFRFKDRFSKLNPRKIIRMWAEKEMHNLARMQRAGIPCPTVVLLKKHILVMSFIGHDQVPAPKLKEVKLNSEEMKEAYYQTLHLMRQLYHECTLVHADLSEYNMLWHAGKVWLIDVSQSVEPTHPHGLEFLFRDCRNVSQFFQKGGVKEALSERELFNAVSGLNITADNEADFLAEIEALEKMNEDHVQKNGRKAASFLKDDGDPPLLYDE", "UniProt P78356, sequence (whole entry, looked up)": "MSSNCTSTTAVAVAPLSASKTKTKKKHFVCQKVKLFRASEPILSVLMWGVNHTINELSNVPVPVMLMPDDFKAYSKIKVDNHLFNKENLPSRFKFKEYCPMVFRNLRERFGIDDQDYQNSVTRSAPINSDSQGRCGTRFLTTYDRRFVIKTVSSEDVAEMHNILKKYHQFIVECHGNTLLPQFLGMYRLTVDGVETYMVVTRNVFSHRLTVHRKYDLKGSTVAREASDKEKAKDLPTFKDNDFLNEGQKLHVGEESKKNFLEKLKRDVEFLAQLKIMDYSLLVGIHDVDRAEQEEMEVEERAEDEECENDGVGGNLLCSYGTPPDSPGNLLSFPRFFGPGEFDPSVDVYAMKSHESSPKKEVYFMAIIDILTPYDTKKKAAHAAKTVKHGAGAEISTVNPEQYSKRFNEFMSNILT"}
{"data": "Block 1", "SMILES": "CN(C)c1ncnc(-c2ccc3nc(Nc4cc(CN5CCN(C(=O)CC(F)(F)F)CC5)ccn4)[nH]c3c2)c1Cl", "read-out": "cell-free assay", "method": "competition with immobilised ligand", "concentration": "1 µM"}
{"target": "MAP kinase-activated protein kinase 2 (MAPKAPK2, Homo sapiens, UniProt P49137)", "remaining binding [%]": 100}
{"target": "Serine/threonine-protein kinase 32A (STK32A, Homo sapiens, UniProt Q8WU08)", "remaining binding [%]": 85}
{"target": "Serine/threonine-protein kinase RIO3 (RIOK3, Homo sapiens, UniProt O14730)", "remaining binding [%]": 92}
{"target": "cAMP-dependent protein kinase catalytic subunit PRKX (PRKX, Homo sapiens, UniProt P51817)", "remaining binding [%]": 100}
{"target": "Phosphatidylinositol 5-phosphate 4-kinase type-2 beta (PIP4K2B, Homo sapiens, UniProt P78356)", "remaining binding [%]": 52}
{"target": "Calcium/calmodulin-dependent protein kinase type II subunit beta (CAMK2B, Homo sapiens, UniProt Q13554)", "remaining binding [%]": 100}
{"target": "Homeodomain-interacting protein kinase 3 (HIPK3, Homo sapiens, UniProt Q9H422)", "remaining binding [%]": 100}
{"target": "Macrophage colony-stimulating factor 1 receptor, autoinhibited (CSF1R, Homo sapiens, UniProt P07333)", "remaining binding [%]": 50}
{"target": "Casein kinase I isoform epsilon (CSNK1E, Homo sapiens, UniProt P49674)", "remaining binding [%]": 100}
{"target": "Mast/stem cell growth factor receptor Kit (KIT, Homo sapiens, UniProt P10721, D816H)", "remaining binding [%]": 75}
{"data": "Block 2", "organism": "Sarcocystis neurona", "read-out": "parasite growth", "concentration": "10 µM"}
{"SMILES": "CN1CCN(C2=Nc3cc(Cl)ccc3Nc3ccccc32)CC1", "inhibition": "-29.7%"}
{"SMILES": "CCC(=O)O[C@]1(C(=O)SCF)[C@H](C)C[C@H]2[C@@H]3C[C@H](F)C4=CC(=O)C=C[C@]4(C)[C@@]3(F)[C@@H](O)C[C@@]21C", "inhibition": "4.1%"}
{"SMILES": "CC(C)(C)NC[C@H](O)COc1nsnc1N1CCOCC1", "inhibition": "-31.6%"}
{"SMILES": "CCOC(=O)OC(C)OC1=C(C(=O)Nc2ccccn2)N(C)S(=O)(=O)c2ccccc21 (centres unmarked)", "inhibition": "-23.9%"}
{"SMILES": "O=C(CCCN1CCC(O)(c2ccc(Cl)cc2)CC1)c1ccc(F)cc1", "inhibition": "14.7%"}
{"SMILES": "C=C1/C(=C\\C=C2/CCC[C@]3(C)[C@@H]([C@H](C)/C=C/[C@@H](O)C4CC4)CC[C@@H]23)C[C@@H](O)C[C@@H]1O", "inhibition": "-24.1%"}
{"SMILES": "OC[C@H]1O[C@@H](n2cnc3c(NC4CCCC4)nc(Cl)nc32)[C@H](O)[C@@H]1O", "inhibition": "-23.6%"}
{"SMILES": "NS(=O)(=O)c1cc2c(cc1C(F)(F)F)NCNS2(=O)=O", "inhibition": "-20.6%"}
{"SMILES": "CCN1CC(CCN2CCOCC2)C(c2ccccc2)(c2ccccc2)C1=O.Cl (centres unmarked)", "inhibition": "-26.7%"}
{"data": "Block 3", "Structure (SMILES)": "CC(C)(C(=O)O)[C@H](NC(=O)Cc1cccc(I)c1)c1ccc2oc(=O)[nH]c2c1", "method": "Incucyte 3D growth", "concentration": "30 µM", "direction": "higher = more growth"}
{"cell line": "PC-9", "time": "192 h", "spheroid area": "1.65e+09 a.u. and 1.63e+09 a.u. and 1.73e+09 a.u. and 1.71e+09 a.u. and 1.62e+09 a.u. and 1.7e+09 a.u."}
{"cell line": "PC-9", "time": "204 h", "spheroid area": "1.68e+09 a.u. and 1.66e+09 a.u. and 1.76e+09 a.u. and 1.73e+09 a.u. and 1.78e+09 a.u. and 1.75e+09 a.u."}
{"cell line": "MEL-JUSO", "time": "510.52 h", "spheroid area": "2.62e+07 a.u. and 5.75e+07 a.u. and 2.78e+07 a.u. and 2.97e+07 a.u. and 8.04e+07 a.u. and 1.63e+07 a.u."}
{"cell line": "PC-9", "time": "234 h", "spheroid area": "1.85e+09 a.u. and 1.9e+09 a.u. and 1.84e+09 a.u. and 1.79e+09 a.u. and 1.86e+09 a.u."}
{"cell line": "NCI-H358", "time": "30 h", "spheroid area": "3.71e+06 a.u. and 3.77e+06 a.u. and 3.93e+06 a.u. and 3.72e+06 a.u. and 3.8e+06 a.u. and 4.76e+06 a.u."}
{"cell line": "A375", "time": "246 h", "spheroid area": "1.33e+08 a.u. and 1.59e+08 a.u. and 1.31e+08 a.u. and 1.39e+08 a.u. and 1.18e+08 a.u."}
{"cell line": "NCI-H358", "time": "84 h", "spheroid area": "3.69e+06 a.u. and 3.72e+06 a.u. and 5.04e+06 a.u. and 3.46e+06 a.u. and 4.62e+06 a.u. and 3.79e+06 a.u."}
{"cell line": "NCI-H1437", "time": "156 h", "spheroid area": "3.18e+07 a.u. and 3.58e+07 a.u. and 2.95e+07 a.u. and 4.25e+07 a.u. and 4.66e+07 a.u. and 3.05e+07 a.u."}
{"cell line": "A375", "time": "210 h", "spheroid area": "1.08e+08 a.u. and 1.24e+08 a.u. and 1.44e+08 a.u. and 1.27e+08 a.u. and 1.26e+08 a.u."}
{"cell line": "KP-4", "time": "66 h", "spheroid area": "1.69e+07 a.u. and 1.59e+07 a.u. and 1.38e+07 a.u. and 1.41e+07 a.u. and 1.46e+07 a.u. and 1.36e+07 a.u."}
{"cell line": "PC-9", "time": "36 h", "spheroid area": "3.5e+08 a.u. and 3.39e+08 a.u. and 3.4e+08 a.u. and 3.59e+08 a.u. and 3.46e+08 a.u. and 3.69e+08 a.u."}
{"cell line": "IPC-298", "time": "12 h", "spheroid area": "2.2e+07 a.u. and 1.56e+07 a.u. and 2.12e+07 a.u. and 1.72e+07 a.u. and 1.98e+07 a.u. and 1.63e+07 a.u."}
{"data": "Block 4", "target": "Dual specificity tyrosine-phosphorylation-regulated kinase 4 (DYRK4, Homo sapiens, UniProt Q9NR20)", "read-out": "enzyme activity", "action": "inhibitor", "concentration": "0.5 µM", "baseline": "control", "Construct (Q9NR20 1-520)": "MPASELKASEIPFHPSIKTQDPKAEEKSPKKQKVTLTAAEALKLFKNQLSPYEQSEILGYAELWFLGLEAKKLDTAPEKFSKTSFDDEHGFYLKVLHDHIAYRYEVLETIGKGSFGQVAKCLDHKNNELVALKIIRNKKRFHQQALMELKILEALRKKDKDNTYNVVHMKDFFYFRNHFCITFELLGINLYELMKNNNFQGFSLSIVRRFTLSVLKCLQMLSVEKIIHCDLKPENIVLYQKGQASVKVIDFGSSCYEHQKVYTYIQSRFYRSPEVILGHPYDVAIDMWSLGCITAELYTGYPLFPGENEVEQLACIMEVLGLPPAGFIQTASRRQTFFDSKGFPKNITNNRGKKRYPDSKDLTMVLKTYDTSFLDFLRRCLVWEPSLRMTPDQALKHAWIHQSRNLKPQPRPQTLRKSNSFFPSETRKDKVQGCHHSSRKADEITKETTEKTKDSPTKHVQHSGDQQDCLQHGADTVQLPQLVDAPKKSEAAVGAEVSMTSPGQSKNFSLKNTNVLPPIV"}
{"Structure (SMILES)": "O=C1Cc2c([nH]c3ccc(Br)cc23)-c2ccccc2N1", "remaining activity [%]": 97.2}
{"Structure (SMILES)": "CC(C)N(CCC(=O)c1ccc2ccccc2c1)Cc1ccccc1", "remaining activity [%]": 88.5}
{"Structure (SMILES)": "CCCCc1c(-c2ccc(O)cc2)[nH]c2nccnc12", "remaining activity [%]": 99.7}
{"Structure (SMILES)": "NC(=O)c1cccc(-c2cc(Nc3ccc(OC(F)(F)F)cc3)ncn2)c1", "remaining activity [%]": 96.3}
{"Structure (SMILES)": "COc1cc2c(Nc3ccc(Br)cc3F)ncnc2cc1OCC1CCN(C)CC1", "remaining activity [%]": 102}
{"Structure (SMILES)": "O=C1c2ccccc2-c2nc3nnnn3nc21", "remaining activity [%]": 88.5}
{"Structure (SMILES)": "FC(F)(F)c1ccc(/C=C/c2nc(COc3ccc(CCCCn4ccnn4)cc3)co2)cc1", "remaining activity [%]": 101}
{"Structure (SMILES)": "CCN(CC)CCCCN1c2ccccc2Oc2ccc(Cl)cc21", "remaining activity [%]": 100}
{"Structure (SMILES)": "CCCNC(=O)Nc1ccc(Oc2ncnc3cc(OC)c(OC)cc23)cc1Cl", "remaining activity [%]": 106}
{"Structure (SMILES)": "Oc1cccc(-c2nc(N3CCOCC3)c3oc4ncccc4c3n2)c1", "remaining activity [%]": 96.6}
{"Structure (SMILES)": "CN1CCN(c2ccc3nc(-c4c(N)c5c(F)cccc5[nH]c4=O)[nH]c3c2)CC1", "remaining activity [%]": 98.1}
{"Structure (SMILES)": "O=Nc1c(-c2c(O)[nH]c3ccccc23)[nH]c2ccccc12", "remaining activity [%]": 96.8}
{"Structure (SMILES)": "C[C@@H](N)[C@H]1CC[C@H](C(=O)Nc2ccncc2)CC1", "remaining activity [%]": 94.2}
{"Structure (SMILES)": "CNc1cc2c(Nc3cccc(Br)c3)ncnc2cn1", "remaining activity [%]": 87.5}
{"Structure (SMILES)": "CN(C)S(=O)(=O)c1ccc2c(c1)/C(=C/c1cc3c([nH]1)CCCC3)C(=O)N2", "remaining activity [%]": 98.2}
{"Structure (SMILES)": "O=C1NC(=O)/C(=C/c2ccc3c(c2)OC(F)(F)O3)S1", "remaining activity [%]": 97.7}
{"Structure (SMILES)": "NC(=O)c1ccc(-c2nc(-c3ccc4c(c3)OCCO4)c(-c3ccccn3)[nH]2)cc1", "remaining activity [%]": 85.6}
{"Structure (SMILES)": "O=C1NC(=O)c2c1c1c3ccccc3[nH]c1c1[nH]c3cc(Br)ccc3c21", "remaining activity [%]": 86}
{"Structure (SMILES)": "COc1cc2c(N3CCN(C(=O)Nc4ccc(OC(C)C)cc4)CC3)ncnc2cc1OCCCN1CCCCC1", "remaining activity [%]": 102}
{"Structure (SMILES)": "O=C(c1ccccc1)c1ccc(N2CCOCC2)cc1O", "remaining activity [%]": 94.9}
{"Structure (SMILES)": "Cc1cc(Nc2cc(N3CCN(C)CC3)nc(Sc3ccc(NC(=O)C4CC4)cc3)n2)[nH]n1", "remaining activity [%]": 97.4}
{"Structure (SMILES)": "COc1ccc2c(c1)c(C1=C(c3c[nH]c4ccccc34)C(=O)NC1=O)cn2CCCN(C)C", "remaining activity [%]": 97.3}
{"Structure (SMILES)": "O=c1c(-c2ccc(F)cc2)c(-c2ccncc2)[nH]n1-c1ccc(Cl)cc1", "remaining activity [%]": 81.5}
{"Structure (SMILES)": "O=C1Nc2ccc(Br)cc2/C1=C/c1cc2c([nH]1)CCCC2", "remaining activity [%]": 102}
{"Structure (SMILES)": "N#Cc1cnc2cnc(NCc3cccnc3)cc2c1Nc1ccc(F)c(Cl)c1", "remaining activity [%]": 84.4}
